Earlier results, collected from citations in different studies.
Lines come from different studies, so protocols differ. ± gives the spread as reported. Values after ≈ are worked out from the molar mass of the structure shown.
Chain of UniProt Q9UKI8 (whole entry, looked up): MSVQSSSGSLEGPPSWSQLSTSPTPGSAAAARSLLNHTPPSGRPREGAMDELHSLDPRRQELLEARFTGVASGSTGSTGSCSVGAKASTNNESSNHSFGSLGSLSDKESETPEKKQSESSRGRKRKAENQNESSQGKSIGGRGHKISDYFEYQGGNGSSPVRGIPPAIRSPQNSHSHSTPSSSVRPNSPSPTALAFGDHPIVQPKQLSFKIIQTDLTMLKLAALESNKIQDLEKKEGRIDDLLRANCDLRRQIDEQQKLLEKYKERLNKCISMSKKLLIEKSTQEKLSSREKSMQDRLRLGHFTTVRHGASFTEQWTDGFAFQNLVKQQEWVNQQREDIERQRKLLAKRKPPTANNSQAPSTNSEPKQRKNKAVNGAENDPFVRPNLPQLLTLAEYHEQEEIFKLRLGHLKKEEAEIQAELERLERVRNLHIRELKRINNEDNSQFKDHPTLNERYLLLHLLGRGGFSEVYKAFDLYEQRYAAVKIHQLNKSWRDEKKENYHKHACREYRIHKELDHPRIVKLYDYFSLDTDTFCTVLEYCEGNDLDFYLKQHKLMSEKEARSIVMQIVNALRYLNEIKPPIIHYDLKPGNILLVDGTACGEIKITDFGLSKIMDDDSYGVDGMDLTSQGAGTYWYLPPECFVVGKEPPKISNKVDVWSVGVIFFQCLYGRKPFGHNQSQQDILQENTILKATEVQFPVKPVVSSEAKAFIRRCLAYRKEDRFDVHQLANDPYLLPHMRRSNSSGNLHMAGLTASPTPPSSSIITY

SMILES	tested on	test	system	setting	how to read	measurement	value
CCCS(=O)(=O)Nc1ccc(F)c(C(=O)c2c[nH]c3ncc(-c4ccc(Cl)cc4)cc23)c1F	ABCG2	–	H460/MX20	–	–	IC50	> 20000 nM
C=C[C@@H]1C[C@]1(NC(=O)[C@@H]1C[C@@H]2CN1C(=O)[C@H](C(C)(C)C)NC(=O)O[C@@H]1C[C@H]1CCCCCc1nc3ccc(OC)cc3nc1O2)C(=O)NS(=O)(=O)C1CC1	P-glycoprotein	transport, inhibitor	–	with: digoxin	–	IC50	> 100000 nM
Cc1[nH]c(C)c(-c2ccc(-c3ccccc3Cl)nc2)c(=O)c1Cl	Plasmodium falciparum	whole cell extended time	3D7	72 h	–	IC50	220 nM
Nc1cc(C(F)(F)F)c(-c2nc(N3CCOCC3)nc(N3CCOCC3)n2)cn1	TLK1 (Homo sapiens, UniProt Q9UKI8)	enzyme activity	–	10 µM	reference: untreated	remaining activity	93%
Cc1[nH]c(C)c(-c2ccc(CCc3cccc(C(F)(F)F)c3)nc2)c(=O)c1Cl	Plasmodium falciparum	whole cell extended time	3D7	72 h	–	IC50	100 nM
C[C@H]1COCCN1c1nc(-c2cnc(N)cc2C(F)F)nc(N2CCOCC2)n1	LoVo	–	–	–	–	GI50	315 nM
FC(F)(F)C(F)(F)C(F)(F)C(F)(F)C(F)(F)C(F)(F)C(F)(F)C(F)(F)Br	CYP2D6	inhibitor	–	Tox21 screening	–	IC50	inactive
Cc1ccc(C)c(OCCCC(C)(C)C(=O)O)c1	human BCRP (ABCG2)	–	–	literature geometric mean	–	IC50	295000 nM
CC1(C)S[C@@H]2[C@H](NC(=O)[C@H](N)c3ccccc3)C(=O)N2[C@H]1C(=O)O	Pseudomonas aeruginosa	–	clinical isolate RKI-No_369/11	–	–	MIC	> 16 µg/mL
C=C(C)[C@@H]1CC[C@]2(C)CC[C@]3(C)[C@H](CC[C@@H]4[C@@]5(C)CC[C@H](O)C(C)(C)[C@@H]5CC[C@]43C)[C@@H]12	rat CYP1A2	inhibitor	rat liver microsomes	–	–	IC50	59400 nM
CNCc1cn(S(=O)(=O)c2cccc(F)c2)c(-c2ccc(F)cc2F)c1OC	BCRP	efflux transport	–	–	–	IC50	> 100000 nM
NS(=O)(=O)C(F)(F)C(F)(F)C(F)(F)C(F)(F)C(F)(F)C(F)(F)C(F)(F)C(F)(F)F	CYP2C9	inhibitor	–	–	–	IC50	710 ± 80 nM
C[C@H]1CN(C2COC2)CCN1c1ccc(Nc2cc(-c3ccnc(N4CCn5c(cc6c5CC(C)(C)C6)C4=O)c3CO)cn(C)c2=O)nc1	human BCRP (ABCG2)	–	–	literature geometric mean	–	IC50	9400 nM
COc1cc2c(c(OC)c1OC)-c1c(cc(OC)c(OC)c1OC)C[C@H](C)[C@H](C)C2	CYP3A, rat	enzyme activity, inhibitor	rat liver microsomes	–	–	IC50	6600 nM
CC(O)c1cc(C(=O)N[C@@H](C)Cn2ccc(-c3ccc(C#N)c(Cl)c3)n2)[nH]n1 (stereo partly shown)	human BCRP (ABCG2)	–	–	literature geometric mean	–	IC50	1310 nM
CNC(C)C1CCC(N)C(OC2C(N)CC(N)C(OC3OCC(C)(O)C(NC)C3O)C2O)O1 (stereo not shown)	Pseudomonas aeruginosa	–	clinical isolate RKI-No_369/11	–	–	MIC	8 µg/mL (≈ 16.8 µM)
C[C@@H]1O[C@@H](OC[C@H]2O[C@@H](Oc3c(-c4ccc(O)c(O)c4)oc4cc(O)cc(O)c4c3=O)[C@H](O)[C@@H](O)[C@@H]2O)[C@H](O)[C@H](O)[C@H]1O	CYP2C	–	–	–	–	IC50	> 100000 nM
O=S(=O)(O)C(F)(F)F	CYP3A4	inhibitor	–	Tox21 screening	–	IC50	inactive
COc1cc(Nc2ncc(F)c(Nc3ccc4c(n3)NC(=O)C(C)(C)O4)n2)cc(OC)c1OC	BCRP (ABCG2)	inhibitor	–	literature maximum	–	IC50	2510 nM
CO/N=C(\C(=O)N[C@@H]1C(=O)N2C(C(=O)O)=C(CSc3nc(=O)c(=O)[nH]n3C)CS[C@H]12)c1csc(N)n1	MRP4	inhibitor	–	–	–	IC50	150000 nM
COC[C@H]1C[C@@H](c2ncc(-c3ccc4c(c3)COc3cc5c(ccc6nc([C@@H]7CC[C@H](C)N7C(=O)[C@@H](NC(=O)OC)C(C)C)[nH]c65)cc3-4)[nH]2)N(C(=O)[C@H](NC(=O)OC)c2ccccc2)C1	human BCRP (ABCG2)	–	–	literature geometric mean	–	IC50	300 nM
COC(=O)N1CCN(Cc2cccc(NC(=O)Nc3ccc(C)nc3)c2F)CC1	BCRP	inhibitor	–	–	–	IC50	2900 nM
